Results from different studies.
Every numbered part comes from another study and shows a few of its results, in no order. Positions count from the first letter of the parent shown.

Sample 1 — method: DHFR PCA, deep sequencing; medium: yeast; together with: (+)-ABA 0 µM; reference: wild-type fitted maximum; reading: higher = stronger binding; endpoint: relative binding score
Target: ABI1, truncated, D143A, DHFR fusion (Arabidopsis thaliana)
Notes: methotrexate growth selection, single substitutions
Starting sequence: PYL1, truncated, DHFR fusion (Arabidopsis thaliana); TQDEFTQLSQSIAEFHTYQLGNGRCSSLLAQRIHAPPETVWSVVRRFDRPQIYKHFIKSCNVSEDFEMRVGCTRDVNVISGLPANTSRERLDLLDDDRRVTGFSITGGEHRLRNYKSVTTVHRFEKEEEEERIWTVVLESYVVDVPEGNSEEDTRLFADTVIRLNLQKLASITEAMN
D48T: 5.85%
T120L: -8.43%
Q167T: 9.49%
M176Y: 4.86%
K116T: 13.3%
P36W: 3.82%
T17I: -3.8%
K54Y: -5.08%
M68Q: 3.88%
R163N: -15.4%
Y115K: -3.36%
A175V: 5.48%
K126W: 7.33%
V62L: 17.7%
R123N: 7.82%
D48I: -0.902%
V40R: 0.673%
L166A: 7.71%
T154H: -6.2%
L94A: -4.95%
D96R: -6.69%
I52T: 24.7%

Sample 2 — method: protein-binding microarray; form: double-stranded DNA, one strand shown; medium: in vitro; concentration: not given; reading: higher = stronger binding; endpoint: E-score
Target: Protein C-ets-1 (ETS1, Homo sapiens, UniProt P14921, residues 1-441, full length assumed)
Notes: k-mer, scored over probes, only values ≥0.25
Target sequence (chain): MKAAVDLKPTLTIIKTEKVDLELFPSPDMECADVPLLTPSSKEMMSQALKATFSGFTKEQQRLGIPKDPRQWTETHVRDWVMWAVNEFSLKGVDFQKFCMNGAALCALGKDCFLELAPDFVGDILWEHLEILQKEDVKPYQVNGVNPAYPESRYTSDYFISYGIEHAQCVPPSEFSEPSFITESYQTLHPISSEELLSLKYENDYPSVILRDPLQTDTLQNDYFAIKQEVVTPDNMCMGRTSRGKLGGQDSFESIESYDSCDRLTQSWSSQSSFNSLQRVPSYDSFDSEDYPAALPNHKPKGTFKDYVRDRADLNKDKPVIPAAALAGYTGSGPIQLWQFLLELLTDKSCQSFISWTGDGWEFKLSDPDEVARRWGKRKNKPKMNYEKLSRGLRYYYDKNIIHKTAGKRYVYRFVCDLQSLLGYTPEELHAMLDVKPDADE
CGCGGATA: 0.3
GGATGCGA: 0.311
ATCCCCGC: 0.282
AGACTTCC: 0.464
GAGGAAAC: 0.415
GCGCGGAA: 0.304
ACCGGATC: 0.438
ACGGAAAG: 0.322
CTAGTTCC: 0.33
CACCGGAC: 0.424
CGCCCGGA: 0.381
CCGACTTC: 0.266
CTTCCACA: 0.284
ATCCGCAC: 0.388
ACACATCC: 0.411
GGAAGAAC: 0.339
AAACGGAT: 0.351
CCGGAAAA: 0.468
GAACCGGA: 0.468
AAGGGAAG: 0.367
GTGAGGAA: 0.263
CTTCCAGC: 0.313

Sample 3 — target: CREB3L4, bZIP domain (human); method: DHFR protein complementation; medium: yeast; reference: wild-type JUN-FOS pair; reading: higher = stronger binding; endpoint: binding fitness
Notes: single substitutions, most at no-binding floor
Starting sequence: JUN, bZIP domain (human); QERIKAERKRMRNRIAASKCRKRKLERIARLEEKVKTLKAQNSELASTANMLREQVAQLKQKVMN; partner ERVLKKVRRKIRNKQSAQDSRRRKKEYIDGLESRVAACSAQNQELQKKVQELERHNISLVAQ
T37E: -1.42 natural log
L31R: -1.49 natural log
I28N: -1.55 natural log
A46L: -1.45 natural log
L31S: -1.49 natural log
K36R: -1.32 natural log
I28R: -1.33 natural log
A46R: -1.43 natural log
E33N: -1.35 natural log
E33G: -1.42 natural log
L38G: -1.5 natural log
E32M: -1.56 natural log
R53Q: -1.44 natural log
L38A: -1.55 natural log
T48Q: -1.22 natural log
M51S: -1.44 natural log
R30A: -1.4 natural log
V35P: -1.48 natural log
A57R: -1.29 natural log
T48V: -1.48 natural log
E33T: -1.51 natural log
M51W: -1.5 natural log
R30L: -1.43 natural log
A29C: -1.55 natural log
R53S: -1.43 natural log

Sample 4 — method: RNA Bind-n-Seq; form: RNA; medium: in vitro; concentration: 365 nM; reference: no-protein control; reading: higher = stronger binding; endpoint: RBNS enrichment (R)
Target: RNA binding protein fox-1 homolog 2, RRM domain, GST-SBP tag (RBFOX2, Homo sapiens, UniProt O43251-10, residues 100-194)
Notes: natural RNA segment, single round, ends assumed
Shared flanks, not repeated: GGGAGUUCUACAGUCCGACGAUC … UGGAAUUCUCGGGUGCCAA
Residues (chain): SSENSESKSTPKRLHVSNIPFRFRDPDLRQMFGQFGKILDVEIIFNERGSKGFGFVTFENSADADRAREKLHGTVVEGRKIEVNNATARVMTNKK
UGUUGUAACACUGAGGUAUCUCAUUUGCCCAUGUUAAUUUUUUUCUAAAUAAAUUGACAAAAACAAAGGUUUGGCGAAUUAGCUAUUUUGUGGAUGUUAAGGAGUGGUUU: 0.487
AGGUCACAUUUUUCCCCCGUGGGGAAAUAAACUGACUUUGGACUGCUUCAGUCUCUGCCAUCUUCCAUGACUGCAUUUGUUCCUGCCUGCCUCGGCGGUAUCCACAGAAG: 0.807
CUUUGAUUACAAAUUUGUCCUUGCACAUGUUAAGAUGAAUUAUCUCCUAAAAAUAUCAUUGUUCUUGGGAGCAGUGUAUGUUACUUUACAUAGCAGCGGUUCCUGUCAUG: 0.366
ACCCUGACUCUUAUUUGCUUGGGGGAAGGAGUGACUGGAGGAGGAACCUAGGAAGGGAACCAAGGAGGCUGGCCCUUGCUCCCUGACUCUUUCAGUGACCACCACCUCCC: 0.627
UGGCGCCCUCAGAGACCCUGGCAUUGGCUGAGCCAAUGUUGGGCCUUCUGAAAAGAAGCCCAGGGGAUGGGGCCUUCAAGGUGCCGGUUUGGAGUUCAAAUCCUGCUCCU: 0.168
AAGAGGCCGAACAUUCCAAGUAGCAGAAGAGAGGGUCUCUCAACUCUGCUCCUCACCUGCAGAAGCCAGUUUGUUUGGCCAUGUGACAAUUGUCCUGUGUUUUUAUAGCA: 0.331
AGAUGUCCAAACUAAUUUUAACAAACGCAUUAAGAGGUUUAUUUGGGUACAUGGCCCGCAGUGGCUUUUGCCCCAGAAAGGGGAAAGGAACACGCGGGUAGAUGAUUUCU: 0.364
CCAGUGUAGGAAGCCUCAUGAGAACAGAACCAUUAACAGCCAGAGUGCCAAUGGUGGGAUCAGCAGGAAGACUGAUGUUGGAGACAAUCGGGUGCGGAUUGGUGCUAAUU: 0.816
GUUCCAAUAAAACUUUAUUUAUGGACACUAAAAUUUGAAUUUCAUAAAAUUUUCCCAUGUCAAGAAUACAAAAUACUUGAGUUUUGUUUUUAGCUAUUUAAUAAUAGGUC: 0.502
AUCUUCAGACCCAAUAGCUCUAAUUUUAACAUUUCUACCCAAUAAGAGGCUCUGUUUUCCACUGAAGCUUUGUUGGAGAAAGAGAAUAUGAAAAUUACACAUUUUAUAAU: 0.376
CUCUCCAUUUUGAUUAAAUAGUUCAUUGCAUUCUGAAGUUUGGGGAUGUUUUUUCUUUCCUUUUCUUUUCAAAUCCUUUAAUGAUAGGAAGACAAGUGAAACUGGGUGCA: 2.18
AAAAAAGGAAAAAAAAAAAAAGUAAUCUUAGGGUUCAUAGUUAUGAUCCUGUUGUAACUAUCUUCGGAAGGCAGCAGUAUCUUCUGGAACUUCCAUAUUCCAUUCCUUCC: 0.334

Sample 5 — target: UBE2C UBC core domain (UniProt O00762); method: yeast two-hybrid; medium: yeast; notes: mostly zero background; reference: not given; reading: higher = stronger interaction; endpoint: lacZ reporter activity
B1: MYCBP2 RING domain (UniProt O75592); chain TSLKQDADDMCMICFTEALSAAPAIQLDCSHIFHLQCCRRVLENRWLGPRITFGFISCPICKNKINHIVLKD
B2: TRIM31 RING domain (UniProt Q9BZY9); chain FVNKLQEEVICPICLDILQKPVTIDCGHNFCLKCITQIGETSCGFFKCPLCKTSVRKNAIRF
B3: RNF31 RING domain (UniProt Q96EP0); chain AFLRRLLAQECAVCGWALPHNRMQALTSCECTICPDCFRQHFTIALKEKHITDMVCPACGRPDLTDDTQLL
B4: TRIM54 RING domain (UniProt Q9BYV2); chain SMDNLEKQLICPICLEMFSKPVVILPCQHNLCRKCANDVFQASNPLWQSRGSTTVSSGGRFRCPSCRHEVVLDRHGV
B5: TRIM26 RING domain (UniProt Q12899); chain PLRSLEEEVTCSICLDYLRDPVTIDCGHVFCRSCTTDVRPISGSRPVCPLCKKPFKKENIRP
B6: RLIM RING domain (UniProt Q9NVW2); chain SFGENDALKTCSVCITEYTEGNKLRKLPCSHEYHVHCIDRWLSENSTCPICRRAVLASGNRE
B7: ANAPC11 RING domain (UniProt Q9NYG5); chain GICRMAFNGCCPDCKVPGDDCPLVWGQCSHCFHMHCILKWLHAQQVQQHCPMCRQEWKFKE
B8: MEX3B RING domain (UniProt Q6ZN04); chain SGLRRKGSRDCSVCFESEVIAALVPCGHNLFCMECANRICEKSEPECPVCHTAVTQAIRIF
B9: TRIM37 RING domain (UniProt O94972); chain SVESIAEVFRCFICMEKLRDARLCPHCSKLCCFSCIRRWLTEQRAQCPHCRAPLQLRELVN
B10: RNF152 RING domain (UniProt Q8N8N0); chain ETLSQDSLLECQICFNYYSPRRRPKLLDCKHTCCSVCLQQMRTSQKDVRCPWCRGVTKLPPGFS
B11: RNF166 RING domain (UniProt Q96A37); chain GDSGLEAQYTCPICLEVYHRPVAIGSCGHTFCGECLQPCLQVPSPLCPLCRLPFDPKKVDK
Construct (chain): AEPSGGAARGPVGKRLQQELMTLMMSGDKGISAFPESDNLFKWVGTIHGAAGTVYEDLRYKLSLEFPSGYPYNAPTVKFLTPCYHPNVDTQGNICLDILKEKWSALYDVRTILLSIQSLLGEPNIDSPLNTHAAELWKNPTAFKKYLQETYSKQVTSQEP
FVKTVEDKYKCEKCHLVLCSPKQTECGHRFCESCMAALLSSSSPKCTACQESIVKDKVF (TRAF3 RING domain (UniProt Q13114)): 0
B1 (MYCBP2 RING domain): 0
B2 (TRIM31 RING domain): 0
B3 (RNF31 RING domain): 0
B4 (TRIM54 RING domain): 0
B5 (TRIM26 RING domain): 0
B6 (RLIM RING domain): 0
B7 (ANAPC11 RING domain): 0
LDAASGHPLVCPLCHGQYERPCLLDCFHDFCTGCLRGRATDGRLSCPLCQHQTLVKGPSG (Rnf207 RING domain (UniProt Q3V3A7)): 0
MNDVLENELQCIICSEYFIEAVTLNCAHSFCSYCINEWMKRKIECPICRKDIKSKTYSL (RNF8 RING domain (UniProt O76064)): 0
B8 (MEX3B RING domain): 0
B9 (TRIM37 RING domain): 0
B10 (RNF152 RING domain): 0
LGTKLEAKYLCSACRNVLRRPFQAQCGHRYCSFCLASILSSGPQNCAACVHEGIYEEGIS (TRAF2 RING domain (UniProt Q12933)): 0
QVQSRTKIEECVVCSDKKAAVLFQPCGHMCACENCANLMKKCVQCRAVVERRVPFI (MIB1 RING domain (UniProt Q86YT6)): 0
B11 (RNF166 RING domain): 0

For quick reference, copied from above (sample 3):
R30A: -1.4 natural log
A29C: -1.55 natural log
I28R: -1.33 natural log
K36R: -1.32 natural log
R53S: -1.43 natural log
